Assay results pooled from the literature.
A part holds a random share of what one study measured.

Study 1
Method: logD(dd/w) and ALogP
Setting: JT method
Quantity: lipophilic permeability efficiency
CC(C)C[C@@H]1NC(=O)[C@H](Cc2cscn2)NC(=O)[C@H](C)NC(=O)[C@H](C)NC(=O)[C@@H](CCC(=O)N2CCCC2)NC(=O)[C@H](CC(C)C)NC(=O)[C@@H](CC(C)C)NC1=O: 1.87
CC(C)C[C@@H]1NC(=O)[C@H](CC(C)C)NC(=O)[C@H](CC(C)C)NC(=O)[C@H](C(C)C)NC(=O)[C@@H](Cc2cscn2)NC(=O)[C@H](Cc2cscn2)NC(=O)[C@H](CCC(=O)N2CCCC2)NC1=O: 2.1
CC(C)C[C@@H]1NC(=O)[C@H](CC(C)C)NC(=O)[C@@H](CC(C)C)NC(=O)[C@H](C(C)C)NC(=O)[C@@H](CCC(=O)N2CCCC2)NC(=O)[C@H](Cc2cscn2)NC(=O)[C@H](C)NC1=O: 1.6
CC(C)C[C@@H]1NC(=O)[C@@H](C)NC(=O)[C@H](CCC(=O)N2CCCC2)NC(=O)[C@@H](C(C)C)NC(=O)[C@H](C(C)C)NC(=O)[C@H](CC(C)C)NC(=O)[C@@H](CC(C)C)NC1=O: 2.55
CC(C)C[C@@H]1NC(=O)[C@H](CC(C)C)NC(=O)[C@H](CC(C)C)NC(=O)[C@H](C(C)C)NC(=O)[C@H](C)NC(=O)[C@@H](CC(C)C)NC(=O)[C@H](C)NC1=O: 2.7
CC(C)C[C@@H]1NC(=O)[C@@H](C)NC(=O)[C@@H](CC(C)C)NC(=O)[C@@H](CC(C)C)NC(=O)[C@H](C)NC(=O)[C@H](CC(C)C)NC(=O)[C@@H](CC(C)C)NC1=O: 2.5
CC(C)C[C@@H]1NC(=O)[C@H](C)NC(=O)[C@H](C)NC(=O)[C@H](CCC(=O)N2CCCC2)NC(=O)[C@H](CC(C)C)NC(=O)[C@H](CC(C)C)NC(=O)[C@@H](C(C)C)NC1=O: 1.14
CC(C)C[C@@H]1NC(=O)[C@H](Cc2cscn2)NC(=O)[C@H](Cc2cscn2)NC(=O)[C@H](CC(C)C)NC(=O)[C@@H](CCC(=O)N2CCCC2)NC(=O)[C@H](CC(C)C)NC(=O)[C@@H](CC(C)C)NC1=O: 2.56
CC(C)C[C@@H]1NC(=O)[C@H](Cc2cscn2)NC(=O)[C@H](CCC(=O)N2CCCC2)NC(=O)[C@H](C)NC(=O)[C@@H](CCC(=O)N2CCCC2)NC(=O)[C@H](CC(C)C)NC(=O)[C@@H](CC(C)C)NC1=O: 2
CC(C)C[C@@H]1NC(=O)[C@H](C)NC(=O)[C@@H](Cc2cscn2)NC(=O)[C@@H](CC(C)C)NC(=O)[C@H](C)NC(=O)[C@H](CC(C)C)NC(=O)[C@H](CC(C)C)NC1=O: 2.37

Study 2
Target: Receptor tyrosine-protein kinase erbB-2 (ERBB2, Homo sapiens, UniProt P04626)
Effect on: enzyme activity
Mode: inhibitor
Tested at: 0.5 µM
Reference: control
Quantity: remaining activity
N#CC(=C(N)Sc1ccc(N)cc1)c1ccccc1C(F)(F)F: 93%
NC(=O)c1ccc(N(C(N)=O)c2c(F)cccc2F)nc1-c1ccc(F)cc1F: 106%
Cc1cc(Nc2nc(-c3ccccc3)nc3ccccc23)n[nH]1: 108%
Nc1ncnc2c1cnn2-c1ccccc1: 107%
CSc1nc(-c2ccnc(N[C@@H](C)c3ccccc3)c2)c(-c2ccc(F)cc2)[nH]1 (racemic): 99.2%
Oc1ccc(Nc2nc(-c3ccc(Cl)cc3)cs2)cc1: 96.9%
O=S(=O)(NCCNC/C=C/c1ccc(Br)cc1)c1cccc2cnccc12: 119%
CCc1[nH]c(-c2ccc(OC)cc2)nc1-c1ccncc1: 98.9%
CCCC(=O)Oc1ccc2[nH]c(C(=O)c3cc4ccccc4[nH]3)cc2c1: 85.9%
CC(C)(C)n1nc(Cc2cccc3ccccc23)c2c(N)ncnc21: 109%

Study 3
Cell line: normal adjacent epithelium patient-derived organoids
Method: CellTiter-Glo
Tested at: 1 µM
Setting: mean of five organoid lines
Reference: DMSO
Quantity: viability
Cc1ccccc1Oc1cc(-n2c(=O)cc(C(F)(F)F)[nH]c2=O)c2ccccc2c1Cl: 109%
O=C(NCCN1CCOCC1)c1ccc2c(c1)C(=O)c1ccc(Nc3ccc(F)c(NC(=O)c4ccccc4)c3)cc1CC2: 85%
Cc1c(C(=O)O)cc(-c2ccc(C3CCNCC3)cc2)c2ccc(-c3ccc(C(F)(F)F)cc3)cc12: 110%
Cc1ccc2nc(CNCCCOc3ccccc3)cc(O)c2c1: 122%
Cc1c(N2CCCC2)nc2ccc(Br)cc2c1C(=O)NC[C@H](CCC(=O)O)c1ccccc1Cl: 107%
Cc1cnc(-c2cc(Cl)ccc2F)cc1-n1c(=O)n(CC(N)=O)c2cnccc21: 118%
CCCCN(CCCC)C(=O)CN1C[C@@H](c2cc(OC)c3c(c2)OCO3)[C@H](C(=O)O)[C@H]1CC(C)(C)CCC: 112%
Cc1ccc2[nH]c(CNCCCc3ccncc3)cc(=O)c2c1: 109%
CC(=O)C1=C(C)N(c2cccc(C(F)(F)F)c2)C(=O)N[C@H]1c1ccc(C#N)nc1: 108%
CCS(=O)(=O)c1cc2cc(C[C@](O)(CC(C)(C)c3ccc(F)cc3C(N)=O)C(F)(F)F)[nH]c2cn1: 104%
CC1=C(C#N)C(c2ccc3[nH]nc(C)c3c2)C(C#N)=C(C)N1: 110%
O=C(O)[C@@H]1[C@@H](Cn2nnc3ccccc3c2=O)CC[C@H]1C(=O)c1ccc(OCCC2CCOCC2)cc1: 113%
Cc1c(NC(=O)c2ccc(C(C)(C)C)cc2)cccc1-c1cn(C)c(=O)c(Nc2ccc(C(=O)N3CCOCC3)cc2)n1: 108%
O=C(Nc1cnc(Oc2ccc(F)cc2)nc1)N1CCc2ncccc2[C@@H]1c1ccc(F)cc1: 128%
CN(C(=O)c1ccccc1)c1cc(N(C)c2ccc3c(c2)CCc2ccc(C(=O)NCCN4CCOCC4)cc2C3=O)ccc1F: 109%
CN(C)CC#Cc1ccc(OCCCc2sc(N3CCc4cccc(C(=O)Nc5nc6ccccc6s5)c4C3)nc2C(=O)O)c(F)c1: 67.3%
O=C(NS(=O)(=O)c1ccc(NCC2CCOCC2)c([N+](=O)[O-])c1)c1ccc(N2CCN(Cc3ccc(C(F)(F)F)cc3-c3ccc(Cl)cc3)CC2)cc1Oc1cnc2[nH]ccc2c1: 104%
Cn1nc(C(=O)NCc2ccc(C(=O)O)cc2)cc1-c1ccc2[nH]ccc2c1: 106%
CC(=O)c1c(NS(C)(=O)=O)c2cc(-c3ccc(Cl)cc3)c(-c3ccc(Cl)cc3Cl)nc2n(C)c1=O: 104%
Cc1nc(N2CC[C@@H](O)C2)ncc1-c1cc(C(F)(F)F)cc2[nH]ncc12: 96.6%
CCNC(=O)c1cc2c(N3CCOC[C@@H]3C)ccnc2[nH]1: 110%
Cn1c(-c2csc(C3CCN(Cc4nc5ncccc5[nH]4)CC3)n2)nc2ccccc21: 106%
CO[C@@H](C)c1c(Nc2ccc([C@H](N(C)C(=O)C3CCS(=O)(=O)CC3)C(F)(F)F)cc2)cnc2cc(Cl)nn12: 89.2%
C[C@H](NC(=O)c1cnc2n1[C@](C)(Cc1ccc(C#N)cc1)C(=O)N2c1cc(Cl)c(F)c(Cl)c1)C(=O)NC1(c2ccccn2)CC1: 109%
C[C@H](NC(=O)Nc1cc2[nH]ncc2c(CO)n1)c1ccccn1: 103%

Study 4
Organism: Sarcocystis neurona
Effect on: parasite growth
Tested at: 10 µM
Setting: secondary screen
Quantity: inhibition
CCN(CC)CCOc1ccc(C(=C(Cl)c2ccccc2)c2ccccc2)cc1: -9.8%
C[C@H]1O[C@@H](O[C@H]2[C@@H](O)C[C@H](O[C@H]3[C@@H](O)C[C@H](O[C@H]4CC[C@@]5(C)[C@H](CC[C@@H]6[C@@H]5C[C@@H](O)[C@]5(C)[C@@H](C7=CC(=O)OC7)CC[C@]65O)C4)O[C@@H]3C)O[C@@H]2C)C[C@H](O)[C@@H]1O: 35.2%
COc1cc(C)c(/C=C/C(C)=C/C=C/C(C)=C/C(=O)O)c(C)c1C: -99.8%
CCCC(CCC)C(=O)O: -16.3%
COc1ccc2c3c1O[C@H]1C[C@@H](O)C=C[C@@]31CCN(C)C2: -33.2%
CCOC(=O)[C@H](CCc1ccccc1)N[C@@H](C)C(=O)N1Cc2ccccc2C[C@H]1C(=O)O: -36.3%
O=C(CCCN1CCC(O)(c2ccc(Cl)cc2)CC1)c1ccc(F)cc1: 42.3%
CN(C)CCCC1(c2ccc(F)cc2)OCc2cc(C#N)ccc21 (centres unmarked): -15.3%
C#C[C@]1(O)CC[C@H]2[C@@H]3CCC4=Cc5oncc5C[C@]4(C)[C@H]3CC[C@@]21C: 14.2%
CC(=O)CCCCn1cnc2c1c(=O)n(C)c(=O)n2C: -12.2%
Nc1ccn([C@@H]2O[C@H](CO)[C@@H](O)[C@@H]2O)c(=O)n1: -61%
NC(=O)c1ncn([C@@H]2O[C@H](CO)[C@@H](O)[C@H]2O)n1: -44.9%
NC(=O)N1c2ccccc2C=Cc2ccccc21: -39.7%
CCCCC(=O)N(Cc1ccc(-c2ccccc2-c2nnn[nH]2)cc1)[C@H](C(=O)O)C(C)C: -51%
